Published values collected from several papers.
Each numbered part is a random draw from the data of one study; scales do not carry over between parts.

Block 1 — method: universal PBM; molecule type: double-stranded DNA, one strand shown; matrix: in vitro; concentration: 600 nM; direction: higher = stronger binding
Target: Sal-like protein 4, full length isoform A (SALL4, Homo sapiens, UniProt Q9UJQ4, residues 1-1053)
UniProt Q9UJQ4, sequence (whole entry, looked up): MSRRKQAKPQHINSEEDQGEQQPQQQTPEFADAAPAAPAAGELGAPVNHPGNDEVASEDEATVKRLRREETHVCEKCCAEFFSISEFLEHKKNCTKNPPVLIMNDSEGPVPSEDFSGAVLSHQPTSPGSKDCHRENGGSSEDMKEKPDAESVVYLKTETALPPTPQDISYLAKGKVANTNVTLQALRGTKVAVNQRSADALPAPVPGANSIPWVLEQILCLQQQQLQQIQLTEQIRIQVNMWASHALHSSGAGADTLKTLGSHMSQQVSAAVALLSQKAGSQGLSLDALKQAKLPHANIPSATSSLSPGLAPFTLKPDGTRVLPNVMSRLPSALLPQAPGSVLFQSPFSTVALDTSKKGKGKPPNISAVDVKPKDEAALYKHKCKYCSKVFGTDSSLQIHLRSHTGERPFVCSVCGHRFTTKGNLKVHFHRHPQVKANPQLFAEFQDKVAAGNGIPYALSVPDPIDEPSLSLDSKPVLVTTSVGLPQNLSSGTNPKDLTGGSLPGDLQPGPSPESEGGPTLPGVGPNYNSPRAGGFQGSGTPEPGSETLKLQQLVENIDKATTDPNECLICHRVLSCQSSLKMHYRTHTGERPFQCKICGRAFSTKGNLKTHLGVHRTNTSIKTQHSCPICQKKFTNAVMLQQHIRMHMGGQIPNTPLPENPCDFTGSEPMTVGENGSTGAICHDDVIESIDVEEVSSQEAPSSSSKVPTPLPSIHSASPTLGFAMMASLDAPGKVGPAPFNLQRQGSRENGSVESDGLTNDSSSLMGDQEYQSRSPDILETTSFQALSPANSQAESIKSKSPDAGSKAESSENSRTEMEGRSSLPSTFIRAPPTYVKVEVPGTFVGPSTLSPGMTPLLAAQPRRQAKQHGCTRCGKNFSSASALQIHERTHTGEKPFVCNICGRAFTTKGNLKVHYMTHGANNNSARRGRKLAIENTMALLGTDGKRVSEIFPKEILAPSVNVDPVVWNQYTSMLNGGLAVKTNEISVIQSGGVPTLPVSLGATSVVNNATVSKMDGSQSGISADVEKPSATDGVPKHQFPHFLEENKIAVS
Setting: 8-mer, flanks averaged, mean of replicates
Oligonucleotide | E-score
TACACGAA | 0.117
CGTGGCTA | -0.0785
ACGCTAGG | -0.147
AATCGATT | 0.187
TAGATCTA | 0.276
ACAACTGT | 0.0158
AATCGTAA | 0.289
ACCCAGGG | -0.356
ATTTCCGC | 0.0101
GCACTCCC | -0.159
TCCAATAA | 0.275
CTTCTGCA | 0.0485
AATTTAGC | 0.192
TCCTCTCA | -0.00829
TTCTGCAA | 0.183
GTCCAACA | -0.121
CATCAACA | 0.116
CGCAAGCG | -0.119
ACCTGCGA | -0.0982
CCCTCTGC | -0.263
TCCGCGCA | -0.2
CCGGAAAA | -0.00222
CGAGACCA | -0.0721
ATTCAAGA | 0.168
AAAAATGG | 0.245

Block 2 — method: protein-binding microarray; molecule type: double-stranded DNA, one strand shown; matrix: in vitro; concentration: not given; direction: higher = stronger binding
Target: Myc proto-oncogene protein, bHLH-zipper, MAX partner unstated (MYC, Homo sapiens, UniProt P01106, residues 368-449)
UniProt P01106, sequence (368-449, looked up): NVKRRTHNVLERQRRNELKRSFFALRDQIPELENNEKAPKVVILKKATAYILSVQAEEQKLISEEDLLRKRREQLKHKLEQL
Setting: k-mer, scored over probes, only values ≥0.25
Oligonucleotide | E-score
ACCCACCT | 0.279
CACACGCA | 0.347
AAGCATGC | 0.429
CGTGTCTA | 0.357
CGTGGCCC | 0.395
ATAGCGTG | 0.364
CATGCTAC | 0.382
TACACGCA | 0.303
CGCCTCGC | 0.251
CGGCACCA | 0.292
GAGCACGA | 0.333
CAACCCAC | 0.251
GGTGTGGA | 0.275
ACATGCAT | 0.385
AGACATGC | 0.395
ACGCGTGG | 0.455
ACACGGTG | 0.261
ACACCCCA | 0.265
ACACATTG | 0.288
ATGGCGTG | 0.367
ACGTGAGG | 0.346
AGCACACG | 0.381
CATGCACG | 0.414
AACGTGTC | 0.395
CCCCGCCG | 0.32

Block 3 — method: RNA Bind-n-Seq; molecule type: RNA; matrix: in vitro; concentration: 365 nM; baseline: no-protein control; direction: higher = stronger binding
Target: RNA binding protein fox-1 homolog 2, RRM domain, GST-SBP tag (RBFOX2, Homo sapiens, UniProt O43251-10, residues 100-194)
Setting: natural RNA segment, single round, ends assumed
Oligonucleotide | RBNS enrichment (R)
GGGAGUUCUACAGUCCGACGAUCCCUCGAGGCACCAUUCCAGCCAGGGACGCUGCCGGGUAGACUCUCCACUCCCCCUGCCGCCCACACUGCAGCAGCCACAUCCAUACACACACGCUCGCACAGUGUUCUGAUGGAAUUCUCGGGUGCCAA | 1.01
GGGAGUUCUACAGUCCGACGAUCUUUAGUUGUAUUUUAUACCUGUGAUUUUAUCUCACAUAUCUUGGUAGGAUGGAGGAGACAGAGGUCUGUUGUCAUCUACUGUCGCUGGGUAAUAAGGAGGGAGCUCUGGAUGGAAUUCUCGGGUGCCAA | 0.809
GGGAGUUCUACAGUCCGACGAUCUCUCCCAAUUAUUUUCAUAUGAAAGCACCUACAAUUAGCCUGUUAGUCCUAUUCAGAUACAUCAAAUAUCAGUGAAUGCUUUACUAUUCGCACAUUUAAGCAUCUUUGUUUGGAAUUCUCGGGUGCCAA | 1.66
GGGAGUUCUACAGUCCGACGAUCCUUCUCUCUCUGGUCAGGCCCACUGCAGAGAUGGUGGUGAGCACAUCUGGGAGGCUGGUCUCCCUCCAGCUGGAAUUGCUGCUCUCUGAGGGAGAGGCUGUGGUGGCUGUUGGAAUUCUCGGGUGCCAA | 0.485
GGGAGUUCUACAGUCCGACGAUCAAUGGUCAUCUAAAAUGAGAGAUUCUGGAUUUUAAUGCAGUUCAAAGUUGAGCUGUAUUUUUGUUGUUGAUUUAUCUGGAUUUUUUUUAAAGCCUUCUAAAACCCAGUGAUGGAAUUCUCGGGUGCCAA | 0.455
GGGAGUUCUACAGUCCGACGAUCAUUCAGGCUGCUUGGGAUAAAGAUGCAAGGACCAGGACUCCCUCCUCACCUCUGGACUGGCUAGAGUCCUCACUCCCAGUCCAAAUGUCCUCCAGAAGCCUCUGGCUAGAUGGAAUUCUCGGGUGCCAA | 0.642
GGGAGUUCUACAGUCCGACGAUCCAGGCUGGCCUCGAACUUGGAUAUCCACCUGCCUCUCCCUCCCGAGUGCUGGGUUUAAAGGUAUGCACCACCACCACCACCUGGUUUUAUGUUAUUUUCUAAAAUUGUCAUGGAAUUCUCGGGUGCCAA | 0.67
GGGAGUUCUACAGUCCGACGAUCAGAAGGCGGAGAAGGAAGAAGUAACCUCUGAGUGGCGGCUAUUGCUUCUGUUCCAGGUGCUGUUCGAGCUGUUAGAACCCUUAGGCUUGACAGCUUUGUGAGUUAUUAUUUGGAAUUCUCGGGUGCCAA | 0.368
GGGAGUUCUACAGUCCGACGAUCGAACUCUUGCCCUCCCUCUCAUUCCCAUCCUUCCUGGUACUGCAGUCAACCAAAGAUGGCAUGACUUACCUGCGCAGAUUUGGAAGCAUUGAACUUAGAGUGCUGGCUCUUGGAAUUCUCGGGUGCCAA | 0.773
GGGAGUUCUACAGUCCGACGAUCUGUAAUUAUAUACACAACAAAUAUUAGUGACUAGUUUUUGUAUUUGACAACUGUUUACCAUUGUGUUUAGGUUAUAUUCUAUAAAUACUCUUUAUAUGCAUAUAUAUGGCUGGAAUUCUCGGGUGCCAA | 0.388
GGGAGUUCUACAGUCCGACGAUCCUCCACAGAGACAGGAUGGUGGAGGGAGUUGUGUGCAGUUGAACUUGAUCCUGUAGUUGGUUUUGACCUGGUGUGGUCCCUCCAUGCUGUGGAAGUGAAAUGUGAGGGAAUGGAAUUCUCGGGUGCCAA | 2.85
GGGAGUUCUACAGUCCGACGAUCGUUUGGCUAACCUUAUUUUGUGCUGUUAAUCUACCAAAGUGUUUUGUCUACCCCUUUAAUAAGUUGAGUUAAAAGUAAAAGGAACUUUAUAGUUAGUGCCACAAGAUAAAUGGAAUUCUCGGGUGCCAA | 0.363

Block 4 — method: protein-binding microarray; molecule type: double-stranded DNA, one strand shown; matrix: in vitro; concentration: 250 nM; setting: 60-bp whole probe; with: salmon DNA 0.4 mg/ml; baseline: random background probes; direction: higher = stronger binding; constant ends, left off below: GCCTAGCAC … GTCTTGATTCGCTTGACGCTGCTG
Target: Interferon regulatory factor 7, full length, phosphomimetic (IRF7, Homo sapiens, UniProt Q92985, residues 1-503, S101K/S471D/S472D/S475D/S476D/S477D/S483D/S484D/S487D)
UniProt Q92985, sequence (whole entry, unmodified, looked up): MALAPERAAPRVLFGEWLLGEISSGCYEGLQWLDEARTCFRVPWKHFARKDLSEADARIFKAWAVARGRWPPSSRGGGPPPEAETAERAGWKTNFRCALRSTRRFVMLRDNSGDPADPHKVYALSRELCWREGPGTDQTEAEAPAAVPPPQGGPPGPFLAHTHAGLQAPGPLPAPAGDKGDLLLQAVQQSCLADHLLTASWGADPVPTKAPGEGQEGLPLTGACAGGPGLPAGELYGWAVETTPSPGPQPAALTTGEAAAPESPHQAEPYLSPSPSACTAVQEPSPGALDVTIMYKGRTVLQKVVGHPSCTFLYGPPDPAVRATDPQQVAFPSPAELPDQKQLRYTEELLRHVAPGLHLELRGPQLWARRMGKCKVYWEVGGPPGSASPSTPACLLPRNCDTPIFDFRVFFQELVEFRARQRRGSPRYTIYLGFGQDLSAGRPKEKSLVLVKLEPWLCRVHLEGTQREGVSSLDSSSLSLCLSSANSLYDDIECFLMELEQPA
Oligonucleotide | log fluorescence [z-score]
TCATTTTTTTTTTGGAAACTGTGCTAG | 0.797
GACGATTCGAGTTTCGAGACGTGCTAG | 4.1
TTAGGTATCGGACGGGGTTAGTGCTAG | 0.0361
TCAGGTTTCAGATGCGTACTGTGCTAG | 1.18
CAGCATCTGCAACATCTACAAGTGCTA | -0.589
GAATGATTACATATATGTTGGTGCTAG | 0.147
GACGGTATCGACTTTCGGGAGGTGCTA | 1.13
GAAGATGTCAAACTCACTCAGTGCTAG | -0.562
GACGGTCTCCTTTTCCTAACGTGCTAG | 1.7
TCATCTCTAACCTCTCTAACTGTGCTA | 0.614
GACGATCTCAATATCGAGACGTGCTAG | 0.192
TCATTATTTATTTTTACACTGTGCTAG | 0.968
GACGGTTCCGGTTTCGTGACGTGCTAG | 6.97
GACGGACTAGGTTTCGGGACGTGCTAG | 3
GACGGACTGGACTATAGGGACGTGCTA | -0.666
TTACGTTTCCTTTTCCTTTAGTGCTAG | 3.96
TTAGGTATCGGTTTCGGTCAGTGCTAG | 7.15
GCCGGTTTCCTTCTCCTGACGTGCTAG | 3.24
TCAATGTTACATTTATAACTGTGCTAG | 0.15
GACGGTTTCTGTTCCGGGACGTGCTAG | 6.45
CACGGTTTCGACTATCGGGACGTGCTA | 6.07
GACGATTTTGGGACTGGAGACGTGCTA | -0.0672
TTAGATATCAGTCACGATTAGTGCTAG | 0.326
GACGCTTTCCTTTCCCTGACGTGCTAG | 1.97
TTAGATTTCAGTCACGATTAGTGCTAG | 0.706

Block 5 — method: protein-binding microarray; molecule type: double-stranded DNA, one strand shown; matrix: in vitro; concentration: 0.8 µM; setting: whole 60-bp probe, no competitor; direction: higher = stronger binding
Target: Centromere-binding protein 1, full length, N-terminal tag (CBF1, Saccharomyces cerevisiae, UniProt P17106, residues 1-351)
UniProt P17106, sequence (whole entry, looked up): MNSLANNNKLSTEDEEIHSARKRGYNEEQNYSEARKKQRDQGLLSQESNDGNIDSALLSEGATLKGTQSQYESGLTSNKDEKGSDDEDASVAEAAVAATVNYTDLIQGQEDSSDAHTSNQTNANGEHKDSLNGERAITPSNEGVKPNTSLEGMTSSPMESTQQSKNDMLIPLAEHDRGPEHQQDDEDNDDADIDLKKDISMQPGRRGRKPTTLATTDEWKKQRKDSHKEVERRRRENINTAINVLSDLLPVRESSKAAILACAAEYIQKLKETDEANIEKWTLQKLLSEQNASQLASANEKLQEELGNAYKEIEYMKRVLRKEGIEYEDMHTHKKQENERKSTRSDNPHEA
Oligonucleotide | fluorescence intensity [a.u.]
CTACTGTGATGTGCAGTGATGGCGAATAGGGTGTTCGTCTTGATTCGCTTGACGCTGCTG | 553
CTAAAGGAAGTGATTGGTGTCACGATGATAAAATTCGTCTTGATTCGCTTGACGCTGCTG | 1030
CTAGTGTCATCCGCGGGTGAGGTAAACGCTGGCTTCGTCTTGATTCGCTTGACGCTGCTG | 464
TGTACGAAGCTATGCCACGTGGGTATAGTAGTTAGGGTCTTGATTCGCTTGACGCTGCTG | 5100
CTAGATGTTCAACCTCGCCTGATCCTACCAAAATTCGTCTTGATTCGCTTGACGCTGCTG | 566
GAATGCCAAGTTAAAGGTGACAAAATAGCGCCTTAGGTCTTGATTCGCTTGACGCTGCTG | 493
CTATGCGAACCACTTGGTCAGGTGCGGTACGTATTCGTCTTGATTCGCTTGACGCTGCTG | 1920
GAATACATTCCGGGTCACATGTGCCCAAATTCTTAGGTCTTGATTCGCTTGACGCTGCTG | 8680
GAATAAGAATTGTTTAACGTGCTTTTATTAATGTAGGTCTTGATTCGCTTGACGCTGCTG | 553
GAAAGTTAAGTACTGCACGTTTCATATCGGAGGTAGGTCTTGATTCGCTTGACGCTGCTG | 616
TGTACGAAGCTATGGCGCGTGTCTATAGTAGTTAGGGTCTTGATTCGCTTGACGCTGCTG | 668
GAAAGTTGACGAATCAACGTGATAATTGTGTAATAGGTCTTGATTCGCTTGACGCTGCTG | 820
GAATCATTCACTGTTCAGCTGATACAAAACATATAGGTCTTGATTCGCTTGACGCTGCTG | 922
GAAAATACAGTTCATCATGATCTGTGATCTAGCTAGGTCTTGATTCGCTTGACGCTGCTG | 579
GAAAGACGGCAAGGTCCCATCAGCTGTACAAAATAGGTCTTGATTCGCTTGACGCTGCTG | 594
TGTACGAAGCTATAATGCATGACTATAGTAGTTAGGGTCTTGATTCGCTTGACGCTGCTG | 563
CCTAACTACTATAGTCACACAGCATAGCTTCGTACAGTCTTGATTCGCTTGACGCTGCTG | 531
GAAAAGGAGAGTCGTCACCTGTAAAAGGAATCTTAGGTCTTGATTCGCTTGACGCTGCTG | 599
CTATAAAAAAGATGCAAAATCACGTGCTGAAAATTCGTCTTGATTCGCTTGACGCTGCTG | 22800
GAAAATGACGCCGGTCACACGCGGGTGCCTGATTAGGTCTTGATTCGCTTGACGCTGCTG | 568
GAAAATCTTCATAAATTCGTGACAAATTAGAATTAGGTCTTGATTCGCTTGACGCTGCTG | 589
CTAAAATTTTATGTTTGCGTGATTGTTGGTGATTTCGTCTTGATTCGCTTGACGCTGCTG | 567
CCTAACTACTATAGTGAGTTCAAATAGCTTCGTACAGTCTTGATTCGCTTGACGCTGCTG | 472
CTATATAATCAGCATCATGTTTTTTAAGCGAGATTCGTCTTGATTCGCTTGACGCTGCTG | 573
TGTACGAAGCTATACGTGATAATTATAGTAGTTAGGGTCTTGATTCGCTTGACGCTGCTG | 577

Some of these lines once more (block 2):
Oligonucleotide | E-score
CGTGGCCC | 0.395
CATGCACG | 0.414
CGGCACCA | 0.292
ACACATTG | 0.288
CGCCTCGC | 0.251
ACGTGAGG | 0.346
CACACGCA | 0.347
CAACCCAC | 0.251
